{"data": "Measured values of several laboratories", "note": "Lines come from different studies, so protocols differ. Numbers after ± are the reported error.", "chain of UniProt P29317 (whole entry, looked up)": "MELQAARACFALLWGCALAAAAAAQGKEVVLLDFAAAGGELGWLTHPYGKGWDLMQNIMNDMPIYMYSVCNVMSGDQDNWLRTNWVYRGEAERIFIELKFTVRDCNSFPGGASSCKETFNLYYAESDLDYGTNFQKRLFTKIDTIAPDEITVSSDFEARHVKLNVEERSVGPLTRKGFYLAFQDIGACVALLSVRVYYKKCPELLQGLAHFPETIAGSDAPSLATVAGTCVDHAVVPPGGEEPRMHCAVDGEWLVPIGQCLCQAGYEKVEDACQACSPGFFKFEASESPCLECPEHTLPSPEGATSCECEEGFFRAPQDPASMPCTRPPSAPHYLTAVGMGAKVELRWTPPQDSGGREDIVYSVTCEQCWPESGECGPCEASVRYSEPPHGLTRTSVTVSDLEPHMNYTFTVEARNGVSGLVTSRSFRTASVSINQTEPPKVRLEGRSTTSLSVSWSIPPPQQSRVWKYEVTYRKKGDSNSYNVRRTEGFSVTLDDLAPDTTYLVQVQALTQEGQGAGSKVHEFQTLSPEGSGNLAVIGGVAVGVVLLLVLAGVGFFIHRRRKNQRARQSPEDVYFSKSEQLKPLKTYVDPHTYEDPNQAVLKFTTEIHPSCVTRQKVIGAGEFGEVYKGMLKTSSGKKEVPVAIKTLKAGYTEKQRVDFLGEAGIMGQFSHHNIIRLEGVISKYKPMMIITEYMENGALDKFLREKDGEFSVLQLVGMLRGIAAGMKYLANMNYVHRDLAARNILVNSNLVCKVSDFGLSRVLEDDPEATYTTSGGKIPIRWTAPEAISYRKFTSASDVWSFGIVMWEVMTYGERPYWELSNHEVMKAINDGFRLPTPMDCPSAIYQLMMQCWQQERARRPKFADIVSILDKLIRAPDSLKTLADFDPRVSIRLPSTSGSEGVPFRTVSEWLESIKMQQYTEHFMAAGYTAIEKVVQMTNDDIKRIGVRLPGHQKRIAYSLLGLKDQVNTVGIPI"}
{"SMILES": "C=C1CC[C@H](OCCCNC(=O)CCOCCOCCOCCOCCOCCOCCOCCOCCOCCOCCOCCOCCOCCOCCOCCOCCOCCOCCOCCOCCOCCOCCOCCOCCOCCOCCOCCOCCOCCOCCOCCOCCOCCOCCOCCOCCNC(=O)CCN2C(=O)CC(SC[C@H](NC(=O)[C@H](Cc3ccccc3)NC(=O)[C@H](CC(N)=O)NC(=O)[C@H](Cc3c[nH]cn3)NC(=O)[C@@H](NC(=O)[C@H](CC(=O)O)NC(=O)[C@H](CCC(N)=O)NC(=O)[C@H](CC(C)C)NC(=O)[C@H](CCCCN)NC(=O)[C@H](CCCCN)NC(=O)[C@H](CCCNC(=N)N)NC(=O)[C@H](CC(C)C)NC(=O)[C@H](Cc3c[nH]c4ccccc34)NC(=O)[C@H](CCC(=O)O)NC(=O)[C@@H](NC(=O)[C@H](CCCNC(=N)N)NC(=O)[C@H](CCC(=O)O)NC(=O)[C@H](CCSC)NC(=O)[C@H](CO)NC(=O)[C@H](CC(N)=O)NC(=O)[C@H](CC(C)C)NC(=O)[C@H](Cc3c[nH]cn3)NC(=O)[C@H](CCCCN)NC(=O)CNC(=O)[C@H](CC(C)C)NC(=O)[C@H](CC(N)=O)NC(=O)[C@H](Cc3c[nH]cn3)NC(=O)[C@H](CCSC)NC(=O)[C@H](CC(C)C)NC(=O)[C@H](CCC(N)=O)NC(=O)[C@@H](NC(=O)[C@H](CCC(=O)O)NC(=O)[C@H](CO)NC(=O)[C@@H](NC(=O)[C@@H](N)CO)C(C)C)[C@@H](C)CC)C(C)C)C(C)C)C(=O)O)C2=O)C/C1=C/C=C1\\CCC[C@]2(C)[C@@H]([C@H](C)CCCC(C)(C)O)CC[C@@H]12 (stereo partly drawn)", "system": "male Sprague-Dawley rat, plasma", "setting": "intravenous, 100 µg/kg, single dose", "endpoint": "Cmax", "result": "2560 ng/mL"}
{"SMILES": "Nc1ncc(-c2cc(-c3cnn(CC(F)(F)F)c3)ncc2F)nc1C(=O)NC1CNCC(F)C1 (stereo not drawn)", "target or system": "PIK3CA", "test": "KINOMEscan", "setting": "1 µM", "scale": "baseline: DMSO control", "endpoint": "remaining binding", "result": "87%"}
{"SMILES": "Cn1ncc2cc(-c3cncc(Cl)c3N3CCC4(CCNC4=O)CC3)ccc21", "target or system": "LS174T", "test": "gene expression, microarray, measured: CARD6 mRNA", "setting": "concentration not given, 4 h", "scale": "baseline: untreated cells", "endpoint": "log2 fold change", "result": -1.47}
{"SMILES": "CCN(C(=O)c1cc(F)ccc1Oc1nncnc1N1CCC2(C1)CN([C@H](CCCN(C)CCOC)C(C)C)C2)C(C)C", "target or system": "L-363", "test": "cell growth or viability", "setting": "72 h", "endpoint": "GI50", "result": "> 10 µM"}
{"SMILES": "Cc1ncsc1-c1ccc(C(C)NC(=O)C2CC(O)CN2C(=O)C(NC(=O)CCCCCCCCCCN2CCCC(Nc3ncc(Cl)c(Nc4ccccc4S(=O)(=O)C(C)C)n3)C2)C(C)(C)C)cc1 (stereo not drawn)", "target or system": "22Rv1", "test": "RNA-seq, measured: TUBD1 mRNA", "setting": "concentration not given", "scale": "baseline: DMSO", "endpoint": "log2 fold change", "result": -1.65}
{"SMILES": "CCCC[C@H](NC(=O)CCCCCCCNC(=O)CN1CCN(CC(=O)O)CCN(CC(=O)O)CC1)C(=O)N[C@H]1CC(=O)NCCCC[C@@H](C(N)=O)NC(=O)[C@H](Cc2c[nH]c3ccccc23)NC(=O)[C@H](CCCNC(=N)N)NC(=O)[C@@H](Cc2ccccc2)NC(=O)[C@H](Cc2c[nH]cn2)NC1=O [technetium-99m labelled]", "system": "C57 mouse, tumor", "setting": "intravenous, 0.037 MBq, 2 h", "endpoint": "tissue uptake", "result": "19.4 ± 2.95 %ID/g"}
{"SMILES": "C=CC(=O)Nc1cccc(Cn2ncc3cnc(Nc4cnn(CCOC)c4)nc32)c1", "target or system": "CDKL5 human", "test": "binding, KINOMEscan", "setting": "100 nM", "scale": "lower = stronger binding", "endpoint": "percent of control", "result": "100%"}
{"SMILES": "CN1CCCNC(=O)c2cccc(c2)C(=O)NCCCN(C)CCCNc2cccc3c2C(=O)c2cccc(c2C3=O)NCCC1", "target or system": "SAS", "test": "RNA-Seq, measured: COPS6 mRNA", "setting": "5 µM, 24 h", "scale": "baseline: untreated cells", "endpoint": "log2 fold change", "result": -2.19}
{"SMILES": "Cc1nn(-c2cccc(N)c2)c(=O)c2cnc(Nc3ccc(N4CCNCC4)cc3)nc12", "target or system": "EPHA2 (Homo sapiens, UniProt P29317)", "test": "enzyme activity, inhibitor", "endpoint": "IC50", "result": "> 10 µM"}
{"SMILES": "CCCC[C@H](NC(=O)COCCOCCNC(=O)CN1CCN(CC(=O)O)CCN(CC(=O)O)CC1)C(=O)N[C@H]1CC(=O)NCCCC[C@@H](C(N)=O)NC(=O)[C@H](Cc2c[nH]c3ccccc23)NC(=O)[C@H](CCCNC(=N)N)NC(=O)[C@@H](Cc2ccccc2)NC(=O)[C@H](Cc2c[nH]cn2)NC1=O [technetium-99m labelled]", "system": "C57 mouse, heart", "setting": "intravenous, 0.037 MBq, 2 h", "endpoint": "tissue uptake", "result": "0.13 ± 0.04 %ID/g"}
{"SMILES": "CNS(=O)(=O)Nc1nccc(Cc2c(C)c3ccc(Oc4ncccc4F)cc3oc2=O)c1F", "target or system": "MKN-45", "test": "cell viability", "setting": "7 days", "endpoint": "IC50", "result": "0.0288 µM"}
{"SMILES": "COC1CN([C@H]2CC[C@H]([C@@]3(C)Oc4c(Cl)cc(C(=O)NCc5c(SC)cc(C)[nH]c5=O)c(C)c4O3)CC2)C1", "test": "RNA-seq, measured: CAVIN1", "system": "human, whole blood", "setting": "dose not given, 24 h", "scale": "baseline: pretreatment baseline", "endpoint": "log2 fold change", "result": 4.27}
{"note": "For quick reference, copied from above:"}
{"SMILES": "CN1CCCNC(=O)c2cccc(c2)C(=O)NCCCN(C)CCCNc2cccc3c2C(=O)c2cccc(c2C3=O)NCCC1", "target or system": "SAS", "test": "RNA-Seq, measured: COPS6 mRNA", "setting": "5 µM, 24 h", "scale": "baseline: untreated cells", "endpoint": "log2 fold change", "result": -2.19}
